{"data": "Measurements from different studies", "note": "Compare with care: the assays were run in different laboratories. Several values in a cell are separate wells, animals, samples, runs or records. ± marks the error that the study gave."}
{"Compound": "COC(=O)C1=CO[C@@H](OC(C)=O)[C@@H]2C(Cn3cc(COCc4ccc(OC)c(OC)c4)nn3)=CC[C@H]12", "cell line": "SK-N-SH", "assay": "neuroprotection, MTT", "setting": "0.6 µM, 24 h, with: 250 µM H2O2", "endpoint": "viability", "value": "59 ± 0.21%"}
{"Compound": "CC(C)CC(O)(CC(C)C)c1cn(C(=O)N2CCCC2)nn1", "cell line": "mouse T-cells", "assay": "N-terminal labeled proteins, N-terminal enrichment proteomics, item: OXSR1", "setting": "1 nM, 6 h", "how to read": "baseline: DMSO", "endpoint": "SILAC ratio", "value": "2.52 ± 0.21"}
{"Compound": "COC(=O)C[C@](O)(CCCC(C)(C)OC(C)=O)C(=O)O[C@@H]1C(OC)=C[C@]23CCCN2CCc2cc4c(cc2[C@H]13)OCO4", "cell line": "pancreatic cancer cells", "assay": "western blot", "setting": "1 µM", "endpoint": "time to MCL-1 degradation", "value": "4 h"}
{"Compound": "Clc1ccc(Nc2c3c(nc4ccccc24)CCCC3)cc1", "cell line": "SH-SY5Y", "assay": "MTT", "setting": "50 µM, 1 h pretreatment, 10% FBS, with: H2O2", "endpoint": "viability", "value": "39.3 ± 1.66%"}
{"Compound": "CN[C@@H](C)C(=O)N[C@H]1CN(C(=O)Cc2ccccc2)CC[C@H]2CC[C@@H](C(=O)NCc3ccc(Br)cc3)N2C1=O", "cell line": "SK-OV-3", "assay": "TNFα-dependent cell killing, trypan blue", "setting": "1 µM, 48 h, with: TNFα-blocking antibody 2 µg/mL", "endpoint": "cell death", "value": "inhibited"}
{"Compound": "[Cl][Au].[Se]=c1n(C2CCCCC2)ccn1C1CCCCC1", "cell line": "LoVo MDR", "assay": "MTT", "how to read": "baseline: LoVo MDR over LoVo", "endpoint": "resistance factor", "value": 1.4}
{"Compound": "C=CCCCCCCCCCOCc1cn(CC2=CC[C@@H]3C(C(=O)OC)=CO[C@@H](OC(C)=O)[C@H]23)nn1", "cell line": "SK-N-SH", "assay": "neuroprotection, MTT", "setting": "0.15 µM, 24 h, with: 250 µM H2O2", "endpoint": "viability", "value": "63.2 ± 0.3%"}
{"Compound": "COc1ccccc1/C=C/[N+](=O)[O-]", "cell line": "THP-2", "assay": "cell viability", "setting": "72 h, FBS 1%", "endpoint": "CC50", "value": "1.23 ± 0.14 µM"}
{"Compound": "CC[C@H](C)[C@H]1OC(=O)[C@H](C(C)C)NC(=O)[C@H](C)OC(=O)[C@@H](C(C)C)NC(=O)[C@@H]([C@@H](C)CC)OC(=O)[C@H](C(C)C)NC(=O)[C@H](C)OC(=O)[C@@H](C(C)C)NC(=O)[C@@H](CC(C)C)OC(=O)[C@H](C(C)C)NC(=O)[C@H](C)OC(=O)[C@@H](C(C)C)NC1=O", "cell line": "NCI-460", "assay": "cell growth or viability", "endpoint": "GI50", "value": "< 1 ng/mL"}
{"Compound": "CCCCCCCCCCOCc1cn(CC2=CC[C@@H]3C(C(=O)OC)=CO[C@@H](O)[C@H]23)nn1", "cell line": "SK-N-SH", "assay": "neuroprotection, MTT", "setting": "0.075 µM, 24 h, with: 250 µM H2O2", "endpoint": "viability", "value": "52.1 ± 0.5%"}
{"Compound": "O=C(CN1CCN(c2cc3c(cc2F)c(=O)c(C(=O)O)cn3C2CC2)CC1)Nc1ccc(Cl)cc1", "cell line": "LLC-PK1 wild type", "assay": "inhibitor, item: Oregon Green paclitaxel", "setting": "4 µM, with: Oregon Green paclitaxel 400 nM", "endpoint": "intracellular accumulation", "value": "no effect"}
{"Compound": "COC(=O)C1=CO[C@@H](OC(C)=O)[C@@H]2C(Cn3cc(CCO[Si](C)(C)C(C)(C)C)nn3)=CC[C@H]12", "cell line": "SK-N-SH", "assay": "neuroprotection, MTT", "setting": "0.6 µM, 24 h, with: 250 µM H2O2", "endpoint": "viability", "value": "56.6 ± 0.2%"}
{"Compound": "CCCCCCCCC1(CCCCCCCC)c2cc(-c3cc4[n+]5c(c3)-c3cccc[n+]3[Ir-3]536([c]5c(c(C)cc(C)c5-c5cccc[n+]53)-c3cccc[n+]36)[n+]3ccccc3-4)ccc2-c2ccc(-c3cc4[n+]5c(c3)-c3cccc[n+]3[Ir-3]536([c]5c(c(C)cc(C)c5-c5cccc[n+]53)-c3cccc[n+]36)[n+]3ccccc3-4)cc21.F[P-](F)(F)(F)(F)F.F[P-](F)(F)(F)(F)F.F[P-](F)(F)(F)(F)F.F[P-](F)(F)(F)(F)F", "cell line": "SK-MEL-28", "setting": "visible light 100 J/cm2", "how to read": "baseline: dark EC50 over visible-light EC50", "endpoint": "phototherapeutic index", "value": "288 and > 280"}
{"Compound": "COC(=O)C1=CO[C@@H](O)[C@@H]2C(Cn3cc(C4(O)CCCC4)nn3)=CC[C@H]12", "cell line": "SK-N-SH", "assay": "neuroprotection, MTT", "setting": "0.075 µM, 24 h, with: 250 µM H2O2", "endpoint": "viability", "value": "75 ± 2.5%"}
{"Compound": "F[P-](F)(F)(F)(F)F.F[P-](F)(F)(F)(F)F.[Ru+2].c1ccc(-c2ccccn2)nc1.c1ccc(-c2ccccn2)nc1.c1csc(-c2ccc(-c3ccc(-c4cc5cccnc5c5ncccc45)s3)s2)c1", "cell line": "SK-MEL-28", "assay": "cell viability, resazurin", "setting": "16 h drug-to-light interval, with: visible light 100 J/cm2", "endpoint": "EC50", "value": "0.125 ± 0.003 µM"}
{"note": "For quick reference, copied from above:"}
{"Compound": "COC(=O)C1=CO[C@@H](O)[C@@H]2C(Cn3cc(C4(O)CCCC4)nn3)=CC[C@H]12", "cell line": "SK-N-SH", "assay": "neuroprotection, MTT", "setting": "0.075 µM, 24 h, with: 250 µM H2O2", "endpoint": "viability", "value": "75 ± 2.5%"}
{"Compound": "F[P-](F)(F)(F)(F)F.F[P-](F)(F)(F)(F)F.[Ru+2].c1ccc(-c2ccccn2)nc1.c1ccc(-c2ccccn2)nc1.c1csc(-c2ccc(-c3ccc(-c4cc5cccnc5c5ncccc45)s3)s2)c1", "cell line": "SK-MEL-28", "assay": "cell viability, resazurin", "setting": "16 h drug-to-light interval, with: visible light 100 J/cm2", "endpoint": "EC50", "value": "0.125 ± 0.003 µM"}
